# Published values from different studies.
# Each line is one published result; not all experiments were run side by side. Values joined by “and” are separate records of one study, mostly repeats; a detail may differ. ± gives the spread as reported.
Compound,cell line,test,conditions,how to read,endpoint,value
CC[C@@H](C)[C@H]1O[C@@H](c2c(O)c(-c3ccccc3)cn(OC)c2=O)[C@H](C)C[C@@H]1C,"LLC-PK11, SK-OV-3, BT-549, KB, SK-MEL",,concentration not given,,cytotoxicity,inactive
Cc1c(O)c(O)cc2c1CC=C1[C@@]2(C)CC[C@@]2(C)[C@@H]3C[C@](C)(C(=O)O)CC[C@]3(C)CC[C@]12C,MYBPC3 iPSC cardiomyocytes,cytotoxicity,24 h,,EC50,18 µM
Oc1ccc(C2(c3ccc(O)cc3)c3ccccc3-c3ccccc32)cc1,"HepG2 spheroids, dissociated",annexin V-FITC/PI flow cytometry,"1 µM, 24 h",,viable cells,67.4 ± 6.74%
N#C[C@@]1(n2ccc(N)nc2=O)O[C@H](CO)[C@@H](O)[C@H]1O,CHO,,"8 µM, with S9",,micronucleated cells,0.42%
CNC(=O)Oc1cc(C)c(SC)c(C)c1,SH-SY5Y,,"24 h, nominal concentration",relative to: baseline IC10 over IC10,toxic ratio,0.49
O=c1ccc2ccccc2o1,NHEK,"ER stress, measured: ATF4","concentration not given, 1 h",,chance response,0.09%
CCCc1nc(N)[nH]c(=O)c1Br,HEL human embryonic lung fibroblasts,cell morphology alteration,,,minimum cytotoxic concentration,> 100 µM
N=C(N)NCCC[C@H](NC(=O)[C@H](CCCNC(=N)N)NC(=O)[C@H](CCCCN)NC(=O)[C@H](CCCNC(=N)N)NC(=O)[C@H](Cc1ccccc1)NC(=O)[C@H](Cc1ccc(O)cc1)NC(=O)[C@H](CCCNC(=N)N)NC(=O)[C@H](CCCNC(=N)N)NC(=O)[C@H](CCCNC(=N)N)NC(=O)[C@H](CCCNC(=N)N)NC(=O)[C@H](CCCNC(=N)N)NC(=O)[C@H](Cc1ccc(O)cc1)NC(=O)[C@H](CCCNC(=N)N)NC(=O)[C@@H](N)CCCNC(=N)N)C(=O)O,DF-1,,"5 µM, 48 h",relative to: untreated cells,viability,101 ± 1.32%
CC(C)(Oc1ccc(CCNC(=O)c2ccc(Cl)cc2)cc1)C(=O)O,HEK293-H PPARγ-UAS-bla cells,"cell viability, IncuCyte imaging","24 h, freely dissolved concentration",,IC10,1440 µM
COc1cccc2c(N3CCc4ccccc4C3C)nc(Nc3ccc(F)cc3C)nc12 (stereo not shown),293T-ACE2,,40 (unit not given),,CC50,19 µM
CN(C)CCCC1(c2ccc(F)cc2)OCc2cc(C#N)ccc21 (stereo not shown),SH-SY5Y,,"24 h, nominal concentration",relative to: baseline IC10 over IC10,toxic ratio,23.9
O=[N+]([O-])c1ccc(-c2nn(-c3ccccc3)c3sc(NC(c4ccccc4O)P(=O)(Oc4ccccc4)Oc4ccccc4)nc23)cc1 (stereo not shown),Vero cells,SRB,"0.01 µM, 10% fetal bovine serum",,viability,100%
Cc1cc(C(C)(C)c2ccc(O)c(C)c2)ccc1O,HepG2 spheroids,"flow cytometry, measured: phospho-histone H3","concentration not given, 96 h",,mitotic cells,no effect
CC(C)[C@H](NC(=O)[C@H](CCCNC(=N)N)NC(=O)[C@H](Cc1c[nH]c2ccccc12)NC(=O)[C@H](CCCNC(=N)N)NC(=O)[C@H](Cc1c[nH]c2ccccc12)NC(=O)[C@H](Cc1c[nH]c2ccccc12)NC(=O)[C@H](Cc1c[nH]c2ccccc12)NC(=O)[C@H](CCCNC(=N)N)NC(=O)[C@H](Cc1c[nH]c2ccccc12)NC(=O)[C@@H](N)CCCNC(=N)N)C(N)=O,HD11 macrophages,,,,LC50,> 512 µM
O=S(=O)(c1ccc(O)cc1)c1ccc(O)cc1,"HepG2 spheroids, dissociated",annexin V-FITC/PI flow cytometry,"0.01 µM, 96 h",,viable cells,38.8 ± 4.56%
O=C(O)C(F)(F)C(F)(F)C(F)(F)C(F)(F)C(F)(F)C(F)(F)C(F)(F)C(F)(F)C(F)(F)F,hTERT-RPTEC parental,,"concentration not given, 96-well plate",,LDH release,22.7 mU/mL and 23.3 mU/mL and 28.7 mU/mL and 27.7 mU/mL

# Some of these lines once more:
Compound,cell line,test,conditions,how to read,endpoint,value
Cc1cc(C(C)(C)c2ccc(O)c(C)c2)ccc1O,HepG2 spheroids,"flow cytometry, measured: phospho-histone H3","concentration not given, 96 h",,mitotic cells,no effect
